Assay results from different studies.
Parts stem from different laboratories: compare values within a part only. Substitutions count along the parent as printed.

Sample 1
Target: Centromere-binding protein 1, full length, His-tagged (CBF1, Saccharomyces cerevisiae, UniProt P17106, residues 1-351)
Chain of UniProt P17106 (whole entry, looked up): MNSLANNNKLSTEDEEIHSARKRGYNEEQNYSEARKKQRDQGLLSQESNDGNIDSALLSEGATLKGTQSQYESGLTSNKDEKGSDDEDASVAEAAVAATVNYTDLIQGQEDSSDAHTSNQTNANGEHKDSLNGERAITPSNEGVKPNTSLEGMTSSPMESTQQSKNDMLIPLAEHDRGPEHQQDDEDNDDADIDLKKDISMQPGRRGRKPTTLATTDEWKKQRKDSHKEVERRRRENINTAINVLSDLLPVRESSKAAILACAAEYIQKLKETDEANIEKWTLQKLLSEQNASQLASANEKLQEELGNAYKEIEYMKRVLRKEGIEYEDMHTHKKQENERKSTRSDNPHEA
Method: competition protein-binding microarray
Form: double-stranded DNA, one strand shown
Sample: in vitro
Concentration: 2 µM
Notes: whole 60-bp probe, lowest competitor level
With: Pho4 competitor, 0.05 µM
Direction: higher = stronger binding
Constant ends, left off below: … GTCTTGATTCGCTTGACGCTGCTG
| Oligonucleotide | fluorescence intensity |
| --- | --- |
| CCTTCGTTGTTATCGTCCGTGTCGGTATCCACTTCC | 60.4 a.u. |
| CGGGGTTAAGTTTTTCACGTGTCCTGCTTGCAGCAG | 885 a.u. |
| GAATGCTTCTGTCTCTGCGTGCTTTTCAAAGGAGAA | 80.1 a.u. |
| TGCGCAACAACTTGATGGGTGGGTGTATGTCTAGAA | 69.2 a.u. |
| TGCAGCACCCAGCTTCCCGTGTATCCATACCACCCT | 84 a.u. |
| CGGGGTTAAGTTTGGAGCGTGGGTGGCTTGCAGCAG | 84.8 a.u. |
| AGTTGTAAGAATTTGCACGGGCCCACAAATCCGACA | 90.4 a.u. |
| TGCGCAACAACTTGGCATGTGGGTGTATGTCTAGAA | 82.5 a.u. |

Sample 2
Target: RING finger protein unkempt homolog, zinc fingers 1-6, GST-SBP tag (UNK, Homo sapiens, UniProt Q9C0B0, residues 30-357)
Chain of UniProt Q9C0B0 (30-357, looked up): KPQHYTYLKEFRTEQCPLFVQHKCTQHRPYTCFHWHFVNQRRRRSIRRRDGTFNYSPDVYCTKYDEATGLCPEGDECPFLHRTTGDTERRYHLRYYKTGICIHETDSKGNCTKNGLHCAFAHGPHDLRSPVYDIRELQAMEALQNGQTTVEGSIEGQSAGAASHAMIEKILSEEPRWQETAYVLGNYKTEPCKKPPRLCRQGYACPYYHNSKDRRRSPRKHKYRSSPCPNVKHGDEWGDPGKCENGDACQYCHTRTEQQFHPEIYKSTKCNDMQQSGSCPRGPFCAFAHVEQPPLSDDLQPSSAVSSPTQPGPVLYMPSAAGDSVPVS
Method: RNA Bind-n-Seq
Form: RNA
Sample: in vitro
Concentration: not given
Notes: RNA with constant flanks, human and mouse sites, ends assumed
Baseline: input RNA pool
Direction: higher = stronger binding
Constant ends, left off below: GGGAGUUCUACAGUCCGACGAUC … CAACAGAGGAUUGAGCAUCA
| Oligonucleotide | bound/input enrichment |
| --- | --- |
| UCUCGUUAAAACCACCAGUAAAAGUGUAACCUUUCUGUUUUGUACAAGGCCUUUCAGUUUUUGUUUUUGGGAAACCAAGGGAAAAAGCACAUUGCAAUCUACUCAAGUGUUUUACCGUUG | 0.124 ratio |
| CUGGACCUCAACUGUGACGGGCAGCUAGAUUUCCAAGAGUUUCUCAACCUCAUUGGUGGCUUAGCUAUAGCGUGCCAUGAUUCUUUCAUCCAAACUUCCCAGAAGCGAAUCUAAUCCUCU | 0.292 ratio |
| CGUGGAGAUACAGACCAGGCCAGUAAUAUUUUGGCCAGCUUUGGUCUGUCUGCUAGAGACUUAGAUGAACUGAGUCGCUAUCCAGAGGACAAGAUUACUCCUGAGAACUUGCCCCAAAUU | 0.122 ratio |
| CUUAUGCCCUCCAGUCUGCAGACCCCUCAGCCCCAGGAGCAGAAUGGGAUUUUAGACUGGCUUAGGAAGCUGCGCUUGCACAAGUAUUACCCUGUCUUUAAACAGCUCACCAUGGAGAAG | 0.227 ratio |
| CUGACCGGCGGGUCCCAGAGACCUGCCCCCAAGGUGUCCCACUGUGUGGCUAAGGGUGGGAUAGAACCCGGGCUGGGAGAGCCGGGUUAUGGGUUCCAGUGGUGGUUCCGCCGCUUCCUU | 0.224 ratio |
| UGCCACCGCCGCUGCUGCCGCCGCCGCCGCCGCCGCCGCCGCUGCGACCUCCGCGUUCGGUAGUAGAAUUUGGAAUCCCUGCACCGGGCUAACAAUGAAGCAGAGUUCCAACGUGCCGGC | 0.279 ratio |
| CCCCUCAUUUGACCUUUCACCUCUGUCUGUUGGAAGCAGUACUUUUUACUGCCUCCUUGUCUUCUGUACAUCUUACUGGGUUUAAUUAAAAAAAGAAAAAAGAAAAAACAACUCUUGUAA | 0.509 ratio |
| UGGGCCAUAGACACAUCUCAAGCAAAGUGGAUGGUAAAAUAGGAAUUCAGAAAUCAGAAAUGCUUUCUCUGGCCUGUUCCUCUCCCCCACCCCCACCCCCGUUGUUUUGUUUUUGGGUGA | 1.08 ratio |

Sample 3
Target: TAR DNA-binding protein 43, full length, His tag (TARDBP, Homo sapiens, UniProt Q13148, residues 1-414)
Method: RNA Bind-n-Seq
Form: RNA
Sample: in vitro
Concentration: 20 nM
Notes: 6-mer, flanks averaged, single round
With: 150 mM LiCl
Baseline: input library
Direction: higher = stronger binding
| Oligonucleotide | 6-mer enrichment (R) |
| --- | --- |
| UGGAUA | 0.945 |
| UGAUUA | 0.912 |
| CGGAAC | 0.874 |
| ACAGUC | 0.798 |
| GGCAUG | 1.08 |
| UUCCAU | 0.925 |
| AUCGUU | 0.927 |
| CUGCUG | 0.955 |

Further values, each from its own experiment
Starting sequence: PafA, mature enzyme, eGFP fusion (Elizabethkingia meningoseptica, UniProt Q9KJX5); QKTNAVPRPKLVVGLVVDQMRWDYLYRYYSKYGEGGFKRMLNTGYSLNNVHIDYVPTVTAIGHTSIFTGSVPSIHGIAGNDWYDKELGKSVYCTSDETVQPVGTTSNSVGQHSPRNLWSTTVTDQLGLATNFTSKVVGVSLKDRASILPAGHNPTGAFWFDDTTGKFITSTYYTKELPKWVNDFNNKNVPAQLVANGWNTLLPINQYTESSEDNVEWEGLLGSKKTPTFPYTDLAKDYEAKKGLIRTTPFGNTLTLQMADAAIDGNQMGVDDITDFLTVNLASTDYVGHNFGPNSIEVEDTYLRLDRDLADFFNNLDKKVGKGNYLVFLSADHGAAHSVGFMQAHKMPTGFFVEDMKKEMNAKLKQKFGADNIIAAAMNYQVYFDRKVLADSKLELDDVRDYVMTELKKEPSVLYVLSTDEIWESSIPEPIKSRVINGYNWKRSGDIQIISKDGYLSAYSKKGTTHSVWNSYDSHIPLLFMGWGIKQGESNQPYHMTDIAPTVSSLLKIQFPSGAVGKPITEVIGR
| Variant | target | assay | system | conditions | scale | quantity | result |
| --- | --- | --- | --- | --- | --- | --- | --- |
| N372G | tungstate, free oxyanion | microfluidic competitive inhibition | in vitro, cell-free expressed | not given, derived from inhibition constants, unchanged parent 2230 nM | lower = stronger binding | oxyanion analog dissociation constant | 2.04 µM |
